# Measured values of several laboratories.
# Lines come from different studies, so protocols differ.
# Technique: steady-state kinetics
# B1: enzyme M56A (Micromonospora griseorubida, UniProt Q49492); chain MSPSTGVELYLDLLKRTVSNFIYQDATHVAGLITEAAFVEEARESGEDYPTVAHTAIGMKRLNNLQHCVESALRDGVPGDVLETGVWRGGACIFARGILKAYDVRDRTVWVADSFQGFPKITDDDHPMDAEMNLHQYNEAVDLPTSLATVQRNFSRYGLLDDQVRFLPGWFKDTMPTAPFERLAVLRMDGDSYGATMDVLTHAYPRLSPGGFAIIDDYCIPACREAVHEYRDRHGISDEIVEIDRQGVYWRRSA
# B2: enzyme (Candida albicans, UniProt A0A1D8PHX1); chain MISIIQNGISQLSSVSGLDEANLKILICTLLSFPFGIIFKRLPDHDYTLKNIYNVAVSCFYVFGICDLRFGISTLLISATGSYFITRYVRTKSMPWINFLFLMIHMAYSHFHLQFFKEYDPKSIDITGAQMILVMKLSAFGWNIHDGKQPRSTLNDFNKARAITKHPNVLPYIGYVFFYASLLTGPAFDYADYDKFIHGTLFDDVPQDKRPGKNKRRIPRSGVQAFKKFSLGFFWAFLLLQSDKFVTMEYMFSPEFVQYHGLFYRIIYMWILGFTFRLKYYTIWTIAEGACILCGIGYNGVDPETGEFKWNRVQNIDPWSFETGQNVHACLEAWNQNTNIWLKNYVYLRVAKPGKKPGFKSTIFTFTTSAFWHGTRPGYYLTFVVGALMQTVGKYYRRNFRPIFLEADGKTPKPTKIVYDFVCWVNTQLAFGFFVQPFVILGFTKSLECWATVYYWLLWVIAISFFAFSGPFAKSVSKFFKSLQPSYREQQRKSREDKYKLNNEEASIVEQAVGAKLGQDYDIPALGLPPFDVFTDFDQTEVDHDIQHLRKAWTSFRGRRGSITENDFDGLKDAYNNFTNEINDIFNTKKEEFKKEKLNKQN
# B3: protein (Phaseolus vulgaris, UniProt V7CJ62); chain MSAYKDQDPRLHGIKTKIRVVPNFPKSGIMFQDITTLLLDPKAFKDTIDLFVERYKGKNISVVAGIEARGFIFGPPIALAIGAKFVPLRKPKKLPGKVISQEYILEYGRDCIEMHVGAVEPGERALVVDDLIATGGTLCAAMDLLERVGAEVVECACVIELPELKGRERLNGKPLYVLVEYMEI
# B4: protein (UniProt Q52060); chain MNQKLKVAIIGSGNIGTDLMIKVLRNAKYLEMGAMVGIDAASDGLARAQRMGVTTTYAGVEGLIKLPEFADIDFVFDATSASAHVQNEALLRQAKPGIRLIDLTPAAIGPYCVPVVNLEEHLGKLNVNMVTCGGQATIPMVAAVSRVAKVHYAEIVASISSKSAGPGTRANIDEFTETTSKAIEVIGGAAKGKAIIIMNPAEPPLIMRDTVYVLSAAADQAAVAASVAEMVQAVQAYVPGYRLKQQVQFDVIPESAPLNIPGLGRFSGLKTSVFLEVEGAAHYLPAYAGNLDIMTSAALATAERMAQSMLNA
# B5: protein (Actinidia deliciosa, UniProt C7SHN9); chain MEPLLFSIQTLVHQVKQEIFSSTFDLYSFVSPSAYDTAWLAMIPHPKQNSCPKFKGCLDWILDNQKEAGYWGECDHDGLPTIDSLPATLACMVALKTWGVSEKHINKGLAFIHANSTTLLKEKYDHLPRWFVIVFPAMVEVAQAAGLKVLFSNGLEEVVLNISLEREKILEREEFVDKYHYPPLASYLEALPPSYTIDRKDITMNLSGDGSCFQSPSATARAFLATGNQKCMAYLESLVQKRPGGVPTMYPMDGELVSLCLVNQIQRLGLAEHFTEEIEENLKLIYENYKNQESREMKDSYLVPTKIYKDSLAFRLLRMHGYNVTPRRFCWFLYQEDIRVHIEKNYECFTSALYNVYRATDLMFSGEYELEEARVFSRKLLEKSMKLKSLNDNLVNFPSFRSVIDHELSVPWIARLEHLDHRMWIEENKVDTLWIGKASFYRLRALNDKLMTLAVESYKFRQSFYRNELEELKRWSKDWGLTDLGFGRKKTTYCYYAIAASSSLPHNSMVRLIVAKSAILVTIADDFFDMEGSLEDLQSLTQAVQRWDGNSLSGHGKIIFCALDNLVSDIAKPHLHLEGSHVAENVKNMWSETIASWLTETTWSHTGYVPSLDEYLQTGKISVASQLMTVPALCFLSPNVHPICKLEANHYQIITKLLMVSTRLLNDTQTYEKELKDGKRNFVILHSKGSPQTGIEKSVAFVKEILDQIEKEFLEHTLMDGHNDLPKPCKHLHLSILRAFHMFYNSGDLFDSDTGLLHDINKAFYVPL
Substance,substrate,matrix,pH,temperature,setting,with,Km [µM]
"protein (Candidatus Protochlamydia amoebophila, UniProt Q6MEN4)",Nc1ccn([C@@H]2O[C@H](COP(=O)(O)OP(=O)(O)OP(=O)(O)O)[C@@H](O)[C@H]2O)c(=O)n1,,pH 7,30 °C,"transporter, labelled substrate, apparent, not purified",,570
"ASRGL1 (Homo sapiens, UniProt Q7L266)",NCCCC[C@H](NC(=O)C[C@H](N)C(=O)O)C(=O)O,,pH 7.4,37 °C,NaCl 100 mM,,5200
B1 (enzyme M56A),CC[C@H]1OC(=O)/C=C/[C@H](C)[C@@H](O[C@@H]2O[C@H](C)C[C@H](N(C)C)[C@H]2O)[C@@H](C)C[C@@H](C)C(=O)/C=C/C=C/[C@@H]1CO[C@@H]1O[C@H](C)[C@@H](O)[C@@H](O)[C@H]1OC,,,,,,6.4
B2 (enzyme),CC/C=C\C/C=C\C/C=C\CCCCCCCC(=O)SCCNC(=O)CCNC(=O)[C@H](O)C(C)(C)COP(=O)(O)OP(=O)(O)OC[C@H]1O[C@@H](n2cnc3c(N)ncnc32)[C@H](O)[C@@H]1OP(=O)(O)O,,pH 7.4,37 °C,"apparent, not purified",,38.8
"enzyme (Limosilactobacillus reuteri, UniProt Q5SBN3)",OC[C@H]1O[C@@](CO)(O[C@H]2O[C@H](CO)[C@@H](O)[C@H](O)[C@H]2O)[C@@H](O)[C@@H]1O,,pH 4.7,37 °C,,,2700
B3 (protein),O=P(O)(O)OC[C@H]1O[C@H](OP(=O)(O)OP(=O)(O)O)[C@H](O)[C@@H]1O,,pH 7.5,37 °C,MgCl2 5 mM,adenine 1 mM,230
"enzyme (Pseudomonas aeruginosa, UniProt Q9HXU0)",Nc1ncnc2c1ncn2[C@@H]1O[C@H](COP(=O)(O)OP(=O)(O)OP(=O)(O)O)[C@@H](O)[C@H]1O,,pH 7.5,37 °C,apparent,,627
"enzyme (Triticum aestivum, UniProt A0A6J4BJN3)",O=C1[C@@H](O[C@@H]2O[C@H](CO)[C@@H](O)[C@H](O)[C@H]2O)Oc2ccccc2N1O,,pH 7.2,30 °C,,,104
"BaiA1 (Clostridium scindens, UniProt P07914)",C[C@H](CCC(=O)SCCNC(=O)CCNC(=O)[C@H](O)C(C)(C)COP(=O)(O)OP(=O)(O)OC[C@H]1O[C@@H](n2cnc3c(N)ncnc32)[C@H](O)[C@@H]1OP(=O)(O)O)[C@H]1CC[C@H]2[C@@H]3CC[C@@H]4C[C@H](O)CC[C@]4(C)[C@H]3CC[C@]12C,,pH 8.7,37 °C,,NAD+,22
"SLCO1B1 (Homo sapiens, UniProt Q9Y6L6)",COc1cc2c(cc1OC)[C@@H]1Cc3ccc(OC)c(OC)c3CN1CC2,,pH 7.4,37 °C,not purified,,18.6
B4 (protein),CC=O,cell extract,,,not purified,CoA,22400
B5 (protein),CC(C)=CCC/C(C)=C/CC/C(C)=C/CO[P@@](=O)(O)OP(=O)(O)O,,pH 7.5,,,FPP 1-100 µM,9.5

# Repeated from above:
Substance,substrate,matrix,pH,temperature,setting,with,Km [µM]
"ASRGL1 (Homo sapiens, UniProt Q7L266)",NCCCC[C@H](NC(=O)C[C@H](N)C(=O)O)C(=O)O,,pH 7.4,37 °C,NaCl 100 mM,,5200
B1 (enzyme M56A),CC[C@H]1OC(=O)/C=C/[C@H](C)[C@@H](O[C@@H]2O[C@H](C)C[C@H](N(C)C)[C@H]2O)[C@@H](C)C[C@@H](C)C(=O)/C=C/C=C/[C@@H]1CO[C@@H]1O[C@H](C)[C@@H](O)[C@@H](O)[C@H]1OC,,,,,,6.4
